Results from different studies.
Parts stem from different laboratories: compare values within a part only. “And” joins repeats or separate records; there may be more than shown.
Sequence of UniProt Q8NI60 (whole entry, looked up): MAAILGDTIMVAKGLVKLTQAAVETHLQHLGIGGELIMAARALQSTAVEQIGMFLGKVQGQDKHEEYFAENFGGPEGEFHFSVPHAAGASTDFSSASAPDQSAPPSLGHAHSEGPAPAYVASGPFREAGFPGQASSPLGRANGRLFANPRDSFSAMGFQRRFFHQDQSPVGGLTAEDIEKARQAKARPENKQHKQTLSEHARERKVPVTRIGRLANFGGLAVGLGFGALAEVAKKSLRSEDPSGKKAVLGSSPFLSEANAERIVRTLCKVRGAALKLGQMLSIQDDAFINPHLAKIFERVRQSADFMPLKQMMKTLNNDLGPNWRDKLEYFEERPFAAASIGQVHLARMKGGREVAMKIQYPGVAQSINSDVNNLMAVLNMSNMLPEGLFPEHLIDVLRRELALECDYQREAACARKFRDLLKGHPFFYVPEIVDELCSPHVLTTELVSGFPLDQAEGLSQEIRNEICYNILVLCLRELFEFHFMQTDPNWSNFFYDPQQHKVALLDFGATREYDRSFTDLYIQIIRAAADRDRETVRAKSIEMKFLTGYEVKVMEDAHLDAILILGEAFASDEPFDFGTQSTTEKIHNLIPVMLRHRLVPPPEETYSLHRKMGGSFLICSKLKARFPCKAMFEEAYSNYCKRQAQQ
Sequence of UniProt Q6ZWH5 (whole entry, looked up): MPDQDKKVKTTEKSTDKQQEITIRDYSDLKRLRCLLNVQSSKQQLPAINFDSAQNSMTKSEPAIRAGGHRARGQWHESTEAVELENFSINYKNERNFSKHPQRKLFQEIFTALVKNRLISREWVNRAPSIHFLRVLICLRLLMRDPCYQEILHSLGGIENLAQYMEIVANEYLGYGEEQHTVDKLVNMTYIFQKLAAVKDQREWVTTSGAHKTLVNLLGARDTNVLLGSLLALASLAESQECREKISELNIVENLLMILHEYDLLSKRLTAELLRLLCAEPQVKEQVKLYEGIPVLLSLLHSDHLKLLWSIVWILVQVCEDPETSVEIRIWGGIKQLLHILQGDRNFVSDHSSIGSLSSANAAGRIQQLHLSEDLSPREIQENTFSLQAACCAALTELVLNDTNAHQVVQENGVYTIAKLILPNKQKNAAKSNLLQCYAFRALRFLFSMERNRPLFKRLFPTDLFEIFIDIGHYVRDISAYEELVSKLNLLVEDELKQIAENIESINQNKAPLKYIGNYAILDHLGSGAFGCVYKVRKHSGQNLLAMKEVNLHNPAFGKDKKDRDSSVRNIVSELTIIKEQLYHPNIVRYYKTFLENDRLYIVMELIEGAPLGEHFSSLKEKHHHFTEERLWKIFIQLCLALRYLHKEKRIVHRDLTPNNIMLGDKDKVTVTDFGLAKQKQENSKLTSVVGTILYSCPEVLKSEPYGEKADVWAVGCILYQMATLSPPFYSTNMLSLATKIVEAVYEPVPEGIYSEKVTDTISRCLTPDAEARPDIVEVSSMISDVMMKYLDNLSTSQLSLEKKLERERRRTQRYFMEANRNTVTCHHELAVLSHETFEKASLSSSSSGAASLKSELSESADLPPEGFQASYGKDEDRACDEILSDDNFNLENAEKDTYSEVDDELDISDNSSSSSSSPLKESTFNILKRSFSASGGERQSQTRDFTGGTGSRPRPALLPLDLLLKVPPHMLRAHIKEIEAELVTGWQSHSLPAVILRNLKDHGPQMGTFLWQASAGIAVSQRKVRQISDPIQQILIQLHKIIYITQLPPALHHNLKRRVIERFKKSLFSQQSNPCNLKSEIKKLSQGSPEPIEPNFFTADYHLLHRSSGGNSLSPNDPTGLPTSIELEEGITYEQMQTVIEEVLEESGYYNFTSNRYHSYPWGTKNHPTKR
Sequence of UniProt P51955 (whole entry, looked up): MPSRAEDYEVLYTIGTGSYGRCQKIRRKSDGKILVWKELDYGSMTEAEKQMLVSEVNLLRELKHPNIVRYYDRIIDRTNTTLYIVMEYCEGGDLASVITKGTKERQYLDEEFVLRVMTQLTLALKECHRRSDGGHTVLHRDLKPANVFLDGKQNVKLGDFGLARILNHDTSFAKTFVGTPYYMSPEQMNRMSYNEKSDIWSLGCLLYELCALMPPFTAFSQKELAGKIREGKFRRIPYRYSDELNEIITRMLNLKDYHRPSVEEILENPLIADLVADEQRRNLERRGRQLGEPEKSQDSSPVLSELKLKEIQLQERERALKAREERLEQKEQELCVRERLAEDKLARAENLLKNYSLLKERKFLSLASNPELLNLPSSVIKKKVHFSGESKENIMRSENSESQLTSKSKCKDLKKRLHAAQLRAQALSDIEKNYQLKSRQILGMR
Sequence of UniProt Q14164 (whole entry, looked up): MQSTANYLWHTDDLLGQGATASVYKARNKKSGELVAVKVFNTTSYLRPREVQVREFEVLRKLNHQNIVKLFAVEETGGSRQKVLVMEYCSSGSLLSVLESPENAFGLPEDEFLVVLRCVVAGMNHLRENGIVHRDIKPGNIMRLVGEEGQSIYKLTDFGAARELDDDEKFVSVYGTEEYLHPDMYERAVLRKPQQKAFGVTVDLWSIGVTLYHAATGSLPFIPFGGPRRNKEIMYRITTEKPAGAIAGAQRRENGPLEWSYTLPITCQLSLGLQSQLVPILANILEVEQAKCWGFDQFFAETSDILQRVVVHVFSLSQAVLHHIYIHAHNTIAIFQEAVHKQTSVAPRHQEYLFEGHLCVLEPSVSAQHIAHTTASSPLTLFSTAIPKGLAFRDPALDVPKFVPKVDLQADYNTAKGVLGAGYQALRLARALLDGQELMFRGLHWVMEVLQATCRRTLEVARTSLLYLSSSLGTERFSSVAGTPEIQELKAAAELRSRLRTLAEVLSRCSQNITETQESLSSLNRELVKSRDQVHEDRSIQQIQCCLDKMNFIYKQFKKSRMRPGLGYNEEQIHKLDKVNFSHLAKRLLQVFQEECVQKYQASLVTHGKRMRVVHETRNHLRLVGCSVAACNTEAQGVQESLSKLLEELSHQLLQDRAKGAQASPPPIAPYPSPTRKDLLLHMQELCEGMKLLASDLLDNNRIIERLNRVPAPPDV
Sequence of UniProt Q9Y2I7 (whole entry, looked up): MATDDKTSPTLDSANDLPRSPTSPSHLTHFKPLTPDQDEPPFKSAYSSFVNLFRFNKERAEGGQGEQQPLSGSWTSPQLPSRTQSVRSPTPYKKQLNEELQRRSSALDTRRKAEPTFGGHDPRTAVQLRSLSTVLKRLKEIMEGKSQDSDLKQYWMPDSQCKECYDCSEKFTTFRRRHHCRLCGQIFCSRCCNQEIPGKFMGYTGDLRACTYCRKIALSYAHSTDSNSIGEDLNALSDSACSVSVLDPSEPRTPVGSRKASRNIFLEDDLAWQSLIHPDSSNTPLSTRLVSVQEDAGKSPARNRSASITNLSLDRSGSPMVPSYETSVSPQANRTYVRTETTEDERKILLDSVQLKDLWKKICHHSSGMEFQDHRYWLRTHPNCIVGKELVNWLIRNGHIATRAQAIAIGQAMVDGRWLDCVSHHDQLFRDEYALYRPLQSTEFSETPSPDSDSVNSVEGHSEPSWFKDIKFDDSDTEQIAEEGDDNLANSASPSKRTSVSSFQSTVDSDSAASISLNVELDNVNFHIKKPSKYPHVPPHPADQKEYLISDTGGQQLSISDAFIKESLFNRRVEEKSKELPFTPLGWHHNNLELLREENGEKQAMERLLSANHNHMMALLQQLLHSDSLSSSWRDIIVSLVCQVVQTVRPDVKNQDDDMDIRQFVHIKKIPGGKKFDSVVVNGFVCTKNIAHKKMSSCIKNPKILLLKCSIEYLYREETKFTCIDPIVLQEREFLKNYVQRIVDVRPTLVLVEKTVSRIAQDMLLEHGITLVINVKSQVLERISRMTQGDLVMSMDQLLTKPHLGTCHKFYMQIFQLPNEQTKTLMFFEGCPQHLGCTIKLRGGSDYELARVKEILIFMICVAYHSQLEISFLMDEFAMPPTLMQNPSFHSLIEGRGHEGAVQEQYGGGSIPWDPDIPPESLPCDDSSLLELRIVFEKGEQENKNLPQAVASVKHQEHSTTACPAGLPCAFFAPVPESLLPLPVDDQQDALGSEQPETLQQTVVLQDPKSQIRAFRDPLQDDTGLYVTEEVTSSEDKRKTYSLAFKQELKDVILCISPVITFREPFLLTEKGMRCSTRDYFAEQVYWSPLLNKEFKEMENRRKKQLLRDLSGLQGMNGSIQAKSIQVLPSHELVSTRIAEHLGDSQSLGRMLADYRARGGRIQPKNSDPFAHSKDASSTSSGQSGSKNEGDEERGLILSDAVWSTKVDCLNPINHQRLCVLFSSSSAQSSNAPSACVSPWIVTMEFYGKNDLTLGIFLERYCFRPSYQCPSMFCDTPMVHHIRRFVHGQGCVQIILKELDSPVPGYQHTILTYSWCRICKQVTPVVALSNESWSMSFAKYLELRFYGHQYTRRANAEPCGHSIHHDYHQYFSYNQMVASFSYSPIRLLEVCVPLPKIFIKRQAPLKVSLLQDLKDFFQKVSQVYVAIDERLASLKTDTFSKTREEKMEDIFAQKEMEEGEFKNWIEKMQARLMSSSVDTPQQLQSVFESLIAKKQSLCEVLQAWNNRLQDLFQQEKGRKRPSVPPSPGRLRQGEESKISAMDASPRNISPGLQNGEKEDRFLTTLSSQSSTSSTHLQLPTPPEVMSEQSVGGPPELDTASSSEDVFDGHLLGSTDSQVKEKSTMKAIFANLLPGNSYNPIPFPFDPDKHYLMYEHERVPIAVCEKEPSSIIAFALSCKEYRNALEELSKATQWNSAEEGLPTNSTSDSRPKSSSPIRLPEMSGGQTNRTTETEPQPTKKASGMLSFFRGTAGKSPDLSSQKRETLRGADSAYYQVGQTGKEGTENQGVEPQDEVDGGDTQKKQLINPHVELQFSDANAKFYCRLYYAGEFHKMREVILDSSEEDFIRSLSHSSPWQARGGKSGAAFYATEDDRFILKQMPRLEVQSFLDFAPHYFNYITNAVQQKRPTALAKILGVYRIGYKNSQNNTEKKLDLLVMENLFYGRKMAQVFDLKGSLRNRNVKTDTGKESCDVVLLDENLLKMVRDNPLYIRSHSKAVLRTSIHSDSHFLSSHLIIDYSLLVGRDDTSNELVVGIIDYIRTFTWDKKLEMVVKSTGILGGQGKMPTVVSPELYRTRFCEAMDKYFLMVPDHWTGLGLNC

Study 1
SMILES: C=CC(=O)N1CCC([C@@H]2CCNc3c(C(N)=O)c(-c4ccc(Oc5ccccc5)cc4)nn32)CC1
Concentration: 1 µM
target	assay	inhibition
Mitogen-activated protein kinase kinase kinase kinase 1 (MAP4K1, Homo sapiens, UniProt Q92918)	enzyme activity, inhibitor	0%
Serine/threonine-protein kinase Nek1 (NEK1, Homo sapiens, UniProt Q96PY6)	enzyme activity, inhibitor	15%
Epidermal growth factor receptor (EGFR, Homo sapiens, UniProt P00533)	cell-free assay	99%
Tyrosine-protein kinase CSK (CSK, Homo sapiens, UniProt P41240)	enzyme activity, inhibitor	94%
Mitogen-activated protein kinase kinase kinase 20 (MAP3K20, Homo sapiens, UniProt Q9NYL2)	enzyme activity, inhibitor	17%
Ephrin type-B receptor 2 (EPHB2, Homo sapiens, UniProt P29323)	cell-free assay	9%

Study 2
Structure (SMILES): CC(=O)N1CCN(c2nc(OC[C@@H]3CCCN3C)nc3c2CCN(c2cccc4cccc(Cl)c24)C3)C[C@@H]1CC#N
Read-out: binding
Mode: competitor
Technique: NanoBRET
Cell line: HEK293
KRAS Q61L: GTPase KRas (KRAS, Homo sapiens, UniProt P01116, Q61L)
target	conditions	normalized BRET
GTPase KRas (KRAS, Homo sapiens, UniProt P01116, Q61H)	45.7 nM	91.4% and 91% and 96.2%
GTPase KRas (KRAS, Homo sapiens, UniProt P01116, G12D)	3.7 µM	87% and 94% and 91.8%
KRAS Q61L	45.7 nM	88.2% and 90.2% and 95.6%
GTPase KRas (KRAS, Homo sapiens, UniProt P01116, Q61R)	1.24 µM	100% and 94% and 86.9%
KRAS Q61L	33.3 µM	13.7% and 13.4% and 6.54%

Study 3
SMILES: C[C@H]1CC[C@H](n2c3cnccc3c3cnc(Nc4ccc5c(n4)CCN(C(=O)CO)C5)nc32)CC1
Concentration: 1 µM
target	assay	remaining binding [%]
Tyrosine-protein kinase ITK/TSK (ITK, Homo sapiens, UniProt Q08881)	binding	79
Atypical kinase COQ8A, mitochondrial (COQ8A, Homo sapiens, UniProt Q8NI60)	cell-free assay, competition with immobilised ligand	90
Tyrosine-protein kinase Mer (MERTK, Homo sapiens, UniProt Q12866)	binding, competition with immobilised ligand	45
Serine/threonine-protein kinase Nek2 (NEK2, Homo sapiens, UniProt P51955)	binding, competition with immobilised ligand	100
Myosin-IIIb (MYO3B, Homo sapiens, UniProt Q8WXR4)	binding, competition with immobilised ligand	100
Activated CDC42 kinase 1 (TNK2, Homo sapiens, UniProt Q07912)	binding, competition with immobilised ligand	88
Ephrin type-A receptor 4 (EPHA4, Homo sapiens, UniProt P54764)	cell-free assay, competition with immobilised ligand	100
Ribosomal protein S6 kinase alpha-2, N-terminal kinase domain (RPS6KA2, Homo sapiens, UniProt Q15349)	binding, competition with immobilised ligand	18
Dual specificity protein kinase CLK1 (CLK1, Homo sapiens, UniProt P49759)	binding, competition with immobilised ligand	0.6

Study 4
Host: human
Medium: microsomes or S9
Concentration: 2 µM
Time: 0.5 h
SMILES	remaining compound
Cn1cc(-n2cc(Cc3c(Cl)cccc3Cl)c(=O)[nH]c2=O)cn1	49.4%
COc1ccc2nc(O)c(-c3c4oc5cc(O)ccc5c4nc4c3c(=O)[nH]n4C3CCCCCCC3)cc2c1	38.5%
CC(C)CCn1cc(C(=O)N2CCN(c3ccccn3)CC2)c2ccccc2c1=O	0.545%
COC(=O)CCN(Cc1ccncc1)c1ncnc2c(F)cccc12	99.4%
Cc1nc(CN2CCN(c3cnc4ccccc4n3)CC2)oc1C	39.4%
Cc1cc(C(=O)Nc2ccc3ccccc3c2)no1	48.8%
COCC1COc2cc3ncnc(Nc4ccc(Br)cc4F)c3cc2O1 (centres unmarked)	27.7%
COCCN1C(=O)C(CC(=O)O)=C2CCCCC21 (centres unmarked)	80.4%

Study 5
Structure (SMILES): COCCOc1nc(-c2ccc(Cl)nc2)nc2c1CN(C(=O)c1ncn3ccccc13)CC2
Read-out: cell-free assay
Technique: competition with immobilised ligand
Concentration: 0.1 µM
target	remaining binding
Hepatocyte growth factor receptor (MET, Homo sapiens, UniProt P08581, M1250T)	71%
Fibroblast growth factor receptor 3 (FGFR3, Homo sapiens, UniProt P22607)	100%
Serine/threonine-protein kinase/endoribonuclease IRE1 (ERN1, Homo sapiens, UniProt O75460)	100%
1-phosphatidylinositol 3-phosphate 5-kinase (PIKFYVE, Homo sapiens, UniProt Q9Y2I7)	90%
Protein kinase C eta type (PRKCH, Homo sapiens, UniProt P24723)	97%
Cyclin-dependent kinase 4, with cyclin D3 (CDK4, Homo sapiens, UniProt P11802)	93%
Serine/threonine-protein kinase 32C (STK32C, Homo sapiens, UniProt Q86UX6)	100%
Phosphatidylinositol 4,5-bisphosphate 3-kinase catalytic subunit beta isoform (PIK3CB, Homo sapiens, UniProt P42338)	100%
Tyrosine-protein kinase ABL1, phosphorylated (ABL1, Homo sapiens, UniProt P00519, Y253F)	93%
Serine/threonine-protein kinase Nek10 (NEK10, Homo sapiens, UniProt Q6ZWH5)	100%
Inhibitor of nuclear factor kappa-B kinase subunit epsilon (IKBKE, Homo sapiens, UniProt Q14164)	100%
STE20/SPS1-related proline-alanine-rich protein kinase (STK39, Homo sapiens, UniProt Q9UEW8)	100%
Serine/threonine-protein kinase ULK3 (ULK3, Homo sapiens, UniProt Q6PHR2)	81%
Phosphatidylinositol 4,5-bisphosphate 3-kinase catalytic subunit alpha isoform (PIK3CA, Homo sapiens, UniProt P42336, C420R)	95%
Membrane-associated tyrosine- and threonine-specific cdc2-inhibitory kinase (PKMYT1, Homo sapiens, UniProt Q99640)	100%
Serine/threonine-protein kinase RIO2 (RIOK2, Homo sapiens, UniProt Q9BVS4)	100%
Serine/threonine-protein kinase PLK4 (PLK4, Homo sapiens, UniProt O00444)	85%
Dual specificity testis-specific protein kinase 1 (TESK1, Homo sapiens, UniProt Q15569)	100%
Macrophage colony-stimulating factor 1 receptor (CSF1R, Homo sapiens, UniProt P07333)	100%
Atypical kinase COQ8A, mitochondrial (COQ8A, Homo sapiens, UniProt Q8NI60)	100%
Receptor-type tyrosine-protein kinase FLT3 (FLT3, Homo sapiens, UniProt P36888, D835V/ITD)	100%
Mitogen-activated protein kinase kinase kinase 12 (MAP3K12, Homo sapiens, UniProt Q12852)	97%
Serine/threonine-protein kinase D2 (PRKD2, Homo sapiens, UniProt Q9BZL6)	100%
Dual specificity protein kinase TTK (TTK, Homo sapiens, UniProt P33981)	100%
Mitogen-activated protein kinase kinase kinase 4 (MAP3K4, Homo sapiens, UniProt Q9Y6R4)	100%

A few entries again (study 3):
target	assay	remaining binding [%]
Tyrosine-protein kinase Mer (MERTK, Homo sapiens, UniProt Q12866)	binding, competition with immobilised ligand	45
Myosin-IIIb (MYO3B, Homo sapiens, UniProt Q8WXR4)	binding, competition with immobilised ligand	100
Serine/threonine-protein kinase Nek2 (NEK2, Homo sapiens, UniProt P51955)	binding, competition with immobilised ligand	100
Activated CDC42 kinase 1 (TNK2, Homo sapiens, UniProt Q07912)	binding, competition with immobilised ligand	88
Dual specificity protein kinase CLK1 (CLK1, Homo sapiens, UniProt P49759)	binding, competition with immobilised ligand	0.6
Ribosomal protein S6 kinase alpha-2, N-terminal kinase domain (RPS6KA2, Homo sapiens, UniProt Q15349)	binding, competition with immobilised ligand	18
